Measured values gathered from unrelated publications.
“And” joins repeats or separate records; there may be more than shown. ± marks the error that the study gave.
PIK3CB: Phosphatidylinositol 4,5-bisphosphate 3-kinase catalytic subunit beta isoform (PIK3CB, Homo sapiens, UniProt P42338)
HDAC8: Histone deacetylase 8 (HDAC8, Homo sapiens, UniProt Q9BY41)
SLC10A1: Hepatic sodium/bile acid cotransporter (SLC10A1, Homo sapiens, UniProt Q14973)
Genome polyprotein protease: Genome polyprotein, protease (Hepatitis C virus genotype 1b, UniProt O92972)
PSMB6: Proteasome subunit beta type-6 (PSMB6, Homo sapiens, UniProt P28072)

SMILES	target	assay	test system	conditions	IC50
O=C(CCl)NCCC(c1ccccc1)c1ccco1 (stereo not shown)	UGT74F1 (Arabidopsis thaliana, UniProt O22820)	enzyme activity, inhibitor			163 µM
Cc1nc(Nc2ccc3c(c2)/C(=C/c2c[nH]c4ccccc24)C(=O)N3)c2ccccc2n1	PIK3CB	enzyme activity, inhibitor, ADP detection			0.385 µM
C[C@@H](Nc1nc2c(cnn2C(C)(C)C)c(=O)n1Cc1cccc(F)c1)c1ccc(Cl)cc1	cGMP-specific 3',5'-cyclic phosphodiesterase (PDE5A, Homo sapiens, UniProt O76074)	enzyme activity, inhibitor			0.248 µM
O=C(NCC1CCOCC1)c1n[nH]cc1NC(=O)c1c(F)cccc1F	Glycogen synthase kinase-3 beta (GSK3B, Homo sapiens, UniProt P49841)	target engagement in cells, BRET			0.012 µM
Cc1c(COc2cc(OCc3cccc(C#N)c3)c(CNC(CO)(CO)CO)cc2Cl)cccc1-c1cccc(OCCCCCCC(=O)NO)c1	HDAC8	enzyme activity, inhibitor			> 1 µM
Cc1ccc(CN2C3(NC(c4ccc(C)cc4)C24C(=O)Nc2ccccc24)C(=O)Nc2ccccc23)cc1 (stereo not shown)	PIK3CB	enzyme activity, inhibitor, ADP detection			0.655 µM
CCN(CC)CC(=O)Nc1cccc(-n2cc(-c3ccc4ccc(-c5cn(-c6cccc(NC(=O)CN(CC)CC)c6)nn5)cc4c3)nn2)c1	Insulin receptor (INSR, Homo sapiens, UniProt P06213)	enzyme activity, inhibitor			> 10 µM
O=C1/C(=N\c2ccc(Cl)cc2)c2ccccc2N1Cc1ccccc1	PIK3CB	enzyme activity, inhibitor, ADP detection			0.0622 µM
C[C@H](CCC(=O)O)[C@H]1CC[C@H]2[C@@H]3CC[C@@H]4C[C@H](O)CC[C@]4(C)[C@H]3CC[C@]12C	SLC10A1				34.1 µM
Fc1ccc(Nc2nc(NC3CCCCC3)c3ccccc3n2)cc1F	Beta-2 adrenergic receptor (ADRB2, Homo sapiens, UniProt P07550, V152G)	β-arrestin2 recruitment, antagonist, BRET	HEK293	mutant V152G, with: isoprenaline 1 µM	1 µM
CC(=O)OC1CCC2(C)C(CCC3(C)C2CC=C2C4C(C)C(C)CCC4(C(=O)O)CCC23C)C1(C)C (stereo not shown)	UDP-glucuronosyltransferase 1A10 (UGT1A10, Homo sapiens, UniProt Q9HAW8)	enzyme activity, inhibitor			> 100 µM
Cc1nc(N(C)c2ccc3c(c2)/C(=C/c2ccccc2C)C(=O)N3C)c2ccccc2n1	PIK3CB	enzyme activity, inhibitor, ADP detection			0.141 µM
CCCCn1c(NN)nc2ccc(C)cc2c1=O	Genome polyprotein protease	enzyme activity, inhibitor, FRET			23.4 µM
CN(CCOCCOCCOCCOCCOCCOCCNc1cccc2c1C(=O)N(C1CCC(=O)NC1=O)C2=O)Cc1ccc(-c2[nH]c3cc(F)cc4c3c2CCNC4=O)cc1 (stereo not shown)	Poly [ADP-ribose] polymerase 2 (PARP2, Homo sapiens, UniProt Q9UGN5)	enzyme activity, inhibitor			0.0072 µM
O=C(/C=C/c1ccccc1)Oc1ccc2c(c1)O/C(=C\C=C\c1ccccc1)C2=O	Phosphatidylinositol 3-kinase catalytic subunit type 3 (PIK3C3, Homo sapiens, UniProt Q8NEB9)	enzyme activity, inhibitor, ADP detection			0.00758 µM
CN(C)CCCn1c(=N)n(CC(O)c2ccc(Br)cc2)c2ccccc21 (stereo not shown)	CatSper channel complex (Homo sapiens, UniProt Q7RTX7+Q86XQ3+Q8NEC5+Q96P56)	calcium influx, inhibitor, FLIPR	human sperm	with: high pH, high potassium	6.3 µM
CC(C)(O)c1ccc(N2Cc3c(ccnc3-c3ccc(F)cc3OCC(F)(F)F)C2=O)cc1	Ceramide glucosyltransferase (UGCG, Homo sapiens, UniProt Q16739)	enzyme activity, inhibitor, RapidFire mass spectrometry		with: UDP-glucose 3 mM	0.063 µM
O=C(NO)c1cccc(OS(=O)(=O)Oc2ccccc2)c1	HDAC8	enzyme activity, inhibitor, fluorescence			0.118 µM
CN1CC[C@@H](COc2cnc(C#N)cc2-c2ccn3nc(NC(=O)C4CC4)cc3c2)C1	Serine/threonine-protein kinase SIK2 (SIK2, Homo sapiens, UniProt Q9H0K1)	enzyme activity, inhibitor			0.048 µM
CCn1nc(Cl)c2c1-c1cnc(N)c(c1)O[C@H](C)c1cc(F)ccc1-c1nn(C)cc1C2	NT-3 growth factor receptor (NTRK3, Homo sapiens, UniProt Q16288)	enzyme activity, inhibitor		with: 1 mM ATP	0.096 µM

SMILES	target	assay	test system	conditions	IC50
Cc1cc(C)c(S(=O)(=O)N(CC(=O)O)c2ccc(Nc3ccnc(N4CCCC4)n3)cc2)c(C)c1	Cyclin-dependent kinase 1 (CDK1, Homo sapiens, UniProt P06493)	enzyme activity, inhibitor			> 100 µM
CC(C)C[C@H](NC(=O)[C@H](Cc1ccc(CN)cc1)NC(=O)[C@H](Cc1ccccc1)N=[N+]=[N-])C(=O)N[C@@H](CC1CC2CCC1C2)C(=O)[C@@]1(C)CO1 (stereo in doubt)	PSMB6	competitive ABPP	Raji cell lysate		> 10 µM
COc1cc(-n2cc3cc(F)cc(C(N)=O)c3n2)cc(Cl)c1C1CC(O)(CCO)CC(C)=C1C (stereo not shown)	Poly [ADP-ribose] polymerase 1 (PARP1, Homo sapiens, UniProt P09874)	enzyme activity, inhibitor, radiometric			0.00027 µM
O=C(NO)c1cncc(OS(=O)(=O)Oc2ccccc2-c2ccccc2)c1	HDAC8	enzyme activity, inhibitor, fluorescence			1.71 µM
Cc1nn(-c2cccc(N)c2)c(=O)c2cnc(Nc3ccc(N4CCNCC4)cc3)nc12	Serine/threonine-protein kinase MRCK alpha (CDC42BPA, Homo sapiens, UniProt Q5VT25)	enzyme activity, inhibitor			> 10 µM
O=C(CCc1ccccc1)N1C(=O)C2(NC(c3ccc(F)cc3)C3(C(=O)Nc4ccccc43)N2Cc2ccc(F)cc2)c2ccccc21 (stereo not shown)	PIK3CB	enzyme activity, inhibitor, ADP detection			0.0494 µM
Cn1cncc1[C@@]1(N)c2ccc(C#N)c(c2)COc2cccc(c2)-c2cc(C#N)nc3ccc1cc23	Protein farnesyltransferase (Homo sapiens, UniProt P49354+P49356)	enzyme activity, inhibitor			0.00241 µM and 0.0024 µM
C[C@@H](O)[C@H](NC(=O)[C@@H]1CSSC[C@@H](NC(=O)[C@H](Cc2ccccc2)NC(N)=O)C(=O)N[C@@H](Cc2ccc(NC(N)=O)cc2)C(=O)N[C@H](Cc2c[nH]c3ccccc23)C(=O)N[C@@H](CCCCN)C(=O)N[C@@H]([C@@H](C)O)C(=O)N1)C(N)=O	Somatostatin receptor type 5 (SSTR5, Homo sapiens, UniProt P35346)	ligand displacement, radioligand			> 1 µM
C=CCn1c(=S)[nH]c2cc3ccccc3cc2c1=O	Genome polyprotein protease	enzyme activity, inhibitor, FRET			20.4 µM
Cc1cnc(C(=O)N[C@H]2CCCCC/C=C\[C@@H]3C[C@@]3(C(=O)NS(=O)(=O)C3CC3)NC(=O)[C@@H]3C[C@@H](Oc4nc5ccccc5c5ccccc45)CN3C2=O)cn1	Cytochrome P450 3A7 (CYP3A7, Homo sapiens, UniProt P24462)	inhibitor, LC-MS/MS, DHEA-S formation, 16α-hydroxy	recombinant enzyme	5 min, no preincubation, with: DHEA-S 5 µM	11.6 µM
O=C1NCCC12CCN(c1c(Cl)cncc1-c1ccc(N3CCOCC3)cc1)CC2	Cyclin-dependent kinase 8, with cyclin C (CDK8, Homo sapiens, UniProt P49336)				0.02 µM
Cc1cc(NC2CCN(C)CC2)ccc1-c1cc2c(N3CCC[C@H](C(=O)NCc4ccc(OC(F)(F)F)cc4)C3)ncnc2[nH]1	RAC-alpha serine/threonine-protein kinase (AKT1, Homo sapiens, UniProt P31749)	enzyme activity, inhibitor, mobility shift			2.41 µM
CNCc1ccc2c(c1)C[C@H](CNC(=N)N)[C@H]2NC(=O)C(=O)Nc1ccc(Cl)c(F)c1	env (Human immunodeficiency virus 1, UniProt Q75760)	viral infection	Cf2Th-CD4/CCR5, HIV-1	48 h	25.5 µM
Cc1c(COc2cc(OCc3cccc(C#N)c3)c(CN3CCCC[C@@H]3C(=O)O)cc2Cl)cccc1-c1cccc(OCCCCCC(=O)NO)c1	Histone deacetylase 3 (HDAC3, Homo sapiens, UniProt O15379)	enzyme activity, inhibitor			0.0461 µM
O=C1/C(=N\c2ccc(Cl)cc2Br)c2ccccc2N1Cc1cccc(Cl)c1 (mixture of isomers)	PIK3CB	enzyme activity, inhibitor, ADP detection			0.159 µM
C[C@H](CCC(=O)NCCS(=O)(=O)O)[C@H]1CC[C@H]2[C@@H]3CC[C@@H]4C[C@H](O)CC[C@]4(C)[C@H]3C[C@H](O)[C@]12C	SLC10A1				24.9 µM
CC(=O)N1c2ccc(-c3ccc(CNC(=O)c4cn5cc(-c6cnc(N)nc6)nc(N6CCOCC6)c5n4)cc3)cc2CC[C@@H]1C	PIK3CB	kinase activity, inhibitor, Kinase-Glo			3.78 ± 0.57 µM
Cc1ccc2c(c1Br)C(O)(CC(=O)c1ccc3c(c1)OCO3)C(=O)N2 (stereo not shown)	Uncharacterized protein (Trypanosoma brucei brucei, UniProt Q386Q8)	inhibitor, coupled colorimetric	Trypanosoma brucei		36.6 µM
CC(=O)Nc1cc(Cc2ccccc2)[nH]n1	Cyclin-dependent kinase 2, with cyclin A (CDK2, Homo sapiens, UniProt P24941)	radiometric		with: 1 µM ATP	4 µM
CC(C)C[C@H](NC(=O)[C@H](Cc1ccc(CN)cc1)NC(=O)[C@H](Cc1ccccc1)N=[N+]=[N-])C(=O)N[C@@H](CC1CCC(C2CCCCC2)CC1)C(=O)[C@@]1(C)CO1 (stereo partly shown)	PSMB6	competitive ABPP	Raji cell lysate		> 10 µM

Excerpt of the above:
SMILES	target	assay	test system	conditions	IC50
Cc1nn(-c2cccc(N)c2)c(=O)c2cnc(Nc3ccc(N4CCNCC4)cc3)nc12	Serine/threonine-protein kinase MRCK alpha (CDC42BPA, Homo sapiens, UniProt Q5VT25)	enzyme activity, inhibitor			> 10 µM
O=C(CCc1ccccc1)N1C(=O)C2(NC(c3ccc(F)cc3)C3(C(=O)Nc4ccccc43)N2Cc2ccc(F)cc2)c2ccccc21 (stereo not shown)	PIK3CB	enzyme activity, inhibitor, ADP detection			0.0494 µM
Cn1cncc1[C@@]1(N)c2ccc(C#N)c(c2)COc2cccc(c2)-c2cc(C#N)nc3ccc1cc23	Protein farnesyltransferase (Homo sapiens, UniProt P49354+P49356)	enzyme activity, inhibitor			0.00241 µM and 0.0024 µM
C[C@@H](O)[C@H](NC(=O)[C@@H]1CSSC[C@@H](NC(=O)[C@H](Cc2ccccc2)NC(N)=O)C(=O)N[C@@H](Cc2ccc(NC(N)=O)cc2)C(=O)N[C@H](Cc2c[nH]c3ccccc23)C(=O)N[C@@H](CCCCN)C(=O)N[C@@H]([C@@H](C)O)C(=O)N1)C(N)=O	Somatostatin receptor type 5 (SSTR5, Homo sapiens, UniProt P35346)	ligand displacement, radioligand			> 1 µM
